Published values pooled from the literature.
Each line is one published result; not all experiments were run side by side. “And” joins repeats or separate records; there may be more than shown. ± marks the error that the study gave.
Sequence of UniProt Q13555 (whole entry, looked up): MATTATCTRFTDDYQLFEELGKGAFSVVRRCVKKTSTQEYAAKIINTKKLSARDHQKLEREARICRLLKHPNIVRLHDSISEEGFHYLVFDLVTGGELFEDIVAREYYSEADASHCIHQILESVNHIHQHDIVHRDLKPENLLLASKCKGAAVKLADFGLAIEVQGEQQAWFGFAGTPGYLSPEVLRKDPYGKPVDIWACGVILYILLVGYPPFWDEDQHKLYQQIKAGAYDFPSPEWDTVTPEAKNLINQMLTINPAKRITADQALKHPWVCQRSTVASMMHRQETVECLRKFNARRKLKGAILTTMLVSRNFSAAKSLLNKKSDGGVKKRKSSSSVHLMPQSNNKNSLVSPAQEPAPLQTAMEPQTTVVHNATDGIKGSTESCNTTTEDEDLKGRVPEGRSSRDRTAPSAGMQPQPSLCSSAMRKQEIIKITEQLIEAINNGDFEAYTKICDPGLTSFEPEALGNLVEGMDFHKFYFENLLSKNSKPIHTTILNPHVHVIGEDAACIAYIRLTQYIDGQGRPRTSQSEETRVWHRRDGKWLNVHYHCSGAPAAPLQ
Sequence of UniProt Q02763 (whole entry, looked up): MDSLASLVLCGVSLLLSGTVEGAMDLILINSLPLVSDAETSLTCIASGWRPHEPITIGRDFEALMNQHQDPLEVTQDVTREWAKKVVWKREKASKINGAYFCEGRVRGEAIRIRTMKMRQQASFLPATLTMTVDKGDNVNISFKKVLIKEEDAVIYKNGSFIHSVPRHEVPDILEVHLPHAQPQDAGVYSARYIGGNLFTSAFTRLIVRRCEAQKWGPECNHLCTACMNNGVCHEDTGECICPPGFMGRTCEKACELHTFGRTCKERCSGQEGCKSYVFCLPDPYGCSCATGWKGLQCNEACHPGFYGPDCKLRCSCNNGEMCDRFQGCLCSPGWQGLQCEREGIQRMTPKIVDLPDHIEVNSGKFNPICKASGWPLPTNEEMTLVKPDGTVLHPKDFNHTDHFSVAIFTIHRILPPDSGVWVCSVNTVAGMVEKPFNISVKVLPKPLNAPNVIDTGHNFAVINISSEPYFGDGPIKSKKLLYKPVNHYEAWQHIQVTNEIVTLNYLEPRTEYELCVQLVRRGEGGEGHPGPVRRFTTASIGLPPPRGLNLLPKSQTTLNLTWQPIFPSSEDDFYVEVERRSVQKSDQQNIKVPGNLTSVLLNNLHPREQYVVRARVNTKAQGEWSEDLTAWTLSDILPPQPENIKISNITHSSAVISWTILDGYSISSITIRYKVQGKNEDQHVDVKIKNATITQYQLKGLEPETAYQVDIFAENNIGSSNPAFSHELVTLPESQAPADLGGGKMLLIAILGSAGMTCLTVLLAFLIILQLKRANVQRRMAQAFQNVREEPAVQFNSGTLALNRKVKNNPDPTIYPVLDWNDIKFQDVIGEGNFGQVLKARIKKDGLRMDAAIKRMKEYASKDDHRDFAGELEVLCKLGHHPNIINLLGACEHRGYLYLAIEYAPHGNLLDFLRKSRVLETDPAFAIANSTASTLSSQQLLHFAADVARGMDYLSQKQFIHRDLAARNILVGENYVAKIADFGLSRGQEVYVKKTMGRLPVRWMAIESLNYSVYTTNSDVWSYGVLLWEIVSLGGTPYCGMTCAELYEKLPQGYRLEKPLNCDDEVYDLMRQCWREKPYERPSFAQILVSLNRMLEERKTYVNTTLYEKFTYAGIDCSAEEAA
Sequence of UniProt P54756 (whole entry, looked up): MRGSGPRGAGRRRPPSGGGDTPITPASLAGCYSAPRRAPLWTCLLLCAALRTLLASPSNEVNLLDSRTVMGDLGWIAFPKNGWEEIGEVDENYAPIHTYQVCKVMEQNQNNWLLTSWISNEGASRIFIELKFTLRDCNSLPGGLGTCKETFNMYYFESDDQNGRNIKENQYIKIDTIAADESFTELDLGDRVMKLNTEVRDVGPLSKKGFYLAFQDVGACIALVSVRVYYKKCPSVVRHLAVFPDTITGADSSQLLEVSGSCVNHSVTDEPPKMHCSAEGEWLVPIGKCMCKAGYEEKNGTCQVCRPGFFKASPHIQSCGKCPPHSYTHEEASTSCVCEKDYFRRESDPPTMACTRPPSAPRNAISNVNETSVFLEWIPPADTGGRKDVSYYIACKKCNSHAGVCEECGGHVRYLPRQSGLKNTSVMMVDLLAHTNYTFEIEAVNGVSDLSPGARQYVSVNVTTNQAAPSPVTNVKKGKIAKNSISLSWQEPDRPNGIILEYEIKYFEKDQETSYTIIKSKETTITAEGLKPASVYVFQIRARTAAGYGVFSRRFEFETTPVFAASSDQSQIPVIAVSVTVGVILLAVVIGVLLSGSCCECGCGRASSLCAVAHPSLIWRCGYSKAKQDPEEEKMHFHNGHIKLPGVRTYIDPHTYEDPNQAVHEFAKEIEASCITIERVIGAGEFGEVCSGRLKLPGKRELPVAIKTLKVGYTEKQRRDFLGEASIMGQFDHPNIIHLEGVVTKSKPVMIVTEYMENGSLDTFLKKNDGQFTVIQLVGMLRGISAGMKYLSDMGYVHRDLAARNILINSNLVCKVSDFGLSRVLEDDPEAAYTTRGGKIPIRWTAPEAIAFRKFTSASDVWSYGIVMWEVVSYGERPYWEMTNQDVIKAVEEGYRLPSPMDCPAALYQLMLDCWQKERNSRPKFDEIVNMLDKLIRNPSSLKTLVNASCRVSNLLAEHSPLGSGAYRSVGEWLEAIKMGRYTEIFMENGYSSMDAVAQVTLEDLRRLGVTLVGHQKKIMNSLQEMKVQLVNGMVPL
Sequence of UniProt P42336 (whole entry, unmodified, looked up): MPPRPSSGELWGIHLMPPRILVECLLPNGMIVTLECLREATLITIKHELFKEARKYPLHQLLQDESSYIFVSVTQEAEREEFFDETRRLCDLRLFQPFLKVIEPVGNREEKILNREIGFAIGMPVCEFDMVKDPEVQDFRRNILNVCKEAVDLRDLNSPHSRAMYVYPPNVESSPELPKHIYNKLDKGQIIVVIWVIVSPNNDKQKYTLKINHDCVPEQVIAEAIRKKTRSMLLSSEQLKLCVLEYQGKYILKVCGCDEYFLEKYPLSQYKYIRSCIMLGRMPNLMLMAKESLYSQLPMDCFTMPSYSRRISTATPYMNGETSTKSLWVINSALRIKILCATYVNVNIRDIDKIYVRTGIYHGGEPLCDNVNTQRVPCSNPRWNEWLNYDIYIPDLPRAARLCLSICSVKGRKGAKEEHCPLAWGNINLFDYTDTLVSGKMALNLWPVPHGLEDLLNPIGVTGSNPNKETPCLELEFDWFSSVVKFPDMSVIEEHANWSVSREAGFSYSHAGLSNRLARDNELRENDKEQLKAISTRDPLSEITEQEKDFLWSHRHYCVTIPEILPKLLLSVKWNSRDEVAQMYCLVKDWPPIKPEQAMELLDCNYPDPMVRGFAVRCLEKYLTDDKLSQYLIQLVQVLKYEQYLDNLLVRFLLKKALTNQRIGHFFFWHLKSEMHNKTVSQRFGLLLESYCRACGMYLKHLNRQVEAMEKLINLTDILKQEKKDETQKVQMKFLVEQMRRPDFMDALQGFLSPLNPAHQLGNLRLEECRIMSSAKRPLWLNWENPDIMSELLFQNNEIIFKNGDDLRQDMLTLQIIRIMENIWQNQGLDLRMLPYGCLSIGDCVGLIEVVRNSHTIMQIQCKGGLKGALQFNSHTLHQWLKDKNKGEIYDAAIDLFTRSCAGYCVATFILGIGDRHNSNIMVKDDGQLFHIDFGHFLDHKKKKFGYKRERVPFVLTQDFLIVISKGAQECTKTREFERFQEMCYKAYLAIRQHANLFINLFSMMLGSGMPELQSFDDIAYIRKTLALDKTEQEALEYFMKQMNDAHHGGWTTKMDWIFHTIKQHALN

| SMILES | tested on | test | system | setting | scale | quantity | result |
| --- | --- | --- | --- | --- | --- | --- | --- |
| CS(C)(=O)=Nc1ccc(-c2ccc(-c3nc4cc(O[C@@H]5CO[C@H]6[C@@H]5OC[C@H]6O)[nH]c4cc3F)cc2)cc1 | Phosphatidylinositol 4,5-bisphosphate 3-kinase catalytic subunit alpha isoform, with p85 alpha (PIK3CA, Homo sapiens, UniProt P42336, E542K) | kinase activity |  | 10 µM |  | inhibition | -2% |
| O=C1NC(=O)c2c1c1cc(F)c[n+]3c1c1c2c2cc(O)ccc2[n]1[Ru-4]312([N]=C=S)[S+]3CC[S+]1CC[S+]2CC3 (stereo not drawn) | TEK (Homo sapiens, UniProt Q02763) | enzyme activity |  | 100 nM, human enzyme, with: 10 µM ATP | reference: untreated | remaining activity | 78% |
| COc1ccccc1-c1n[nH]c2nc(NC3CCN(C(=O)Cc4ccc(F)cc4F)CC3)ncc12 |  | bead binding, competition bead pull-down, refers to: LINJ.36.0600 | Leishmania donovani axenic amastigote extract | 10 µM | reference: vehicle | relative abundance | 0.42 |
| O=C(C[Se]C(=O)c1ccco1)Nc1cccc(C(F)(F)F)c1 | NCI60 CNS subpanel | cell growth |  | 10 µM, 48 h, one-dose |  | mean growth percent | -44.2% |
| COc1ccc(NC(=O)c2ccc3[nH]c(-c4ccc(N(C)C)cc4)nc3c2)cn1 | HCT-116 | Caspase-Glo luminescence |  | 8 µM, ISRIB pre-incubation, unit not given | reference: DMSO | caspase-3/7 activity | 5.08 |
| O=C(C[Se]C(=O)c1ccc2ccccc2n1)Nc1cccc(C(F)(F)F)c1 | NCI60 breast subpanel | NCI60 five-dose screen |  |  |  | CC50 | 12.6 µM |
| CC1CCC2C(C)C(OC(=O)CCC(=O)N3CCC(Nc4ccc(S(=O)(=O)NC(=O)c5ccc(N6CCN(CC7=C(c8ccc(Cl)cc8)CC(C)(C)CC7)CC6)cc5Oc5cnc6[nH]ccc6c5)cc4[N+](=O)[O-])CC3)OC3OC4(C)CCC1C32OO4 (stereo not drawn) | THP-1 | NOXA induction, western blot, refers to: NOXA |  | 24 h |  | effective concentration | 0.2 µM |
| O=C(C[Se]C(=O)c1cccs1)Nc1cccc(C(F)(F)F)c1 | NCI60 colon subpanel | cell growth |  | 10 µM, 48 h, one-dose |  | mean growth percent | -52.9% |
| CC(C)C[C@H](NC(=O)[C@H](CCC(=O)O)NC(=O)[C@@H](N)Cc1ccccc1)C(=O)N[C@@H](CCC(=O)O)C(=O)N[C@@H](CCCNC(=N)N)C(=O)N[C@@H](CCCNC(=N)N)C(=O)N[C@@H](Cc1ccccc1)C(=O)N[C@@H](CCCCN)C(=O)N[C@@H](CCC(N)=O)C(=O)N[C@@H](CCC(N)=O)C(=O)O | HCT-116 | Transwell |  | concentration not given | reference: vehicle | cell migration and invasion | no effect |
| CC(=O)NCSC[C@H](NC(=O)[C@@H]1CCCN1C(=O)[C@H](C)NC(=O)[C@@H](NC(=O)CNC(=O)[C@@H](NC(=O)[C@H](Cc1c[nH]c2ccccc12)NC(=O)[C@H](C)NC(=O)CNC(=O)[C@H](CO)NC(=O)[C@H](C)NC(=O)[C@@H]1CCCN1C(=O)[C@H](Cc1c[nH]c2ccccc12)NC(=O)[C@H](C)NC(=O)[C@H](C)NC(=O)[C@@H](N)Cc1ccc(O)cc1)[C@@H](C)O)[C@@H](C)O)C(=O)N[C@@H](CO)C(=O)N[C@@H](C)C(=O)NCC(=O)N[C@H](C(=O)NCCOCCOCCOCCOCCOCCOCCOCCOCCOCCOCCOCCOCCC(=O)N[C@@H](CS)C(N)=O)[C@@H](C)O | H1355 lung adenocarcinoma | cell binding, phage binding, refers to: output/input phage |  | 10 min, 37 °C | reference: control phage | selectivity ratio | 4.5 ± 3.2 |
| CC(C)CC(O)(CC(C)C)c1cn(C(=O)N2CCCC2)nn1 | mouse T-cells | protein abundance, unenriched SILAC proteomics, refers to: Tfg |  | 1 nM, 6 h, single tryptic peptide | reference: DMSO | SILAC ratio | 1.01 and 0.85 |
| CC[C@H](C)[C@H](NC(=O)[C@H](CO)NC(=O)[C@H](Cc1ccc(O)cc1)NC(=O)[C@H](Cc1ccc(O)cc1)NC(=O)[C@H](CC(N)=O)NC(=O)CNC(=O)[C@H](CO)NC(=O)[C@H](Cc1ccc(O)cc1)NC(=O)[C@H](CO)NC(=O)[C@H](CO)NC(=O)[C@H](CC(N)=O)NC(=O)COCCOCCNC(=O)CN1CCN(CC(=O)O)CCN(CC(=O)O)CCN(CC(=O)O)CC1)C(=O)N[C@@H](CC(C)C)C(N)=O [copper-64 labelled] |  | dynamic PET | tamoxifen-induced PDAC mouse model, pancreas | 17.5 min, CLDN4-expressing tumours |  | maximum pancreas uptake | 16.2 %IA/cc |
| O=C1NC2(CC2)COc2ncc(F)cc2[C@H]2COCCN2c2ccn3ncc1c3n2 |  |  | Sprague-Dawley rat, male, serum | oral, 2.5 mg/kg/day, end of recovery, 4-week subacute toxicity |  | serum LDH activity | 846 ± 232 U/L |
| CN(C)[C@H]1C[C@@]23CC[C@@]4(O2)C(=CC[C@]2(C)[C@@H](c5ccc6ccncc6c5)CC[C@H]24)C=C3[C@@H](O)[C@@H]1O | CAMK2G (Homo sapiens, UniProt Q13555) | ATP probe labelling, inhibitor, KiNativ profiling |  | 1 µM |  | inhibition | 14.9% |
| N[C@H](C(=O)N1CCCC1)C1CCN(c2nccc3c(-c4ncc(Cl)cc4Cl)cccc23)CC1 | human neutrophils | protein citrullination, inhibitor, flow cytometry, refers to: citrullinated proteins |  | 10 µM, with: ionomycin |  | inhibition | 97.9% and 102% and 98.1% and 94.7% |
| Cc1cc(C(=O)Nc2nc3cccc(C)c3n2[C@H]2CCCCN(C(=O)/C=C/CN(C)C)C2)ccn1 | Trypanosoma brucei | propidium iodide flow cytometry | bloodstream form | concentration not given, 6 h |  | cells in G1 phase | 35.3% |
| CC(C)(C)C(=O)OCOP(=O)(OCOC(=O)C(C)(C)C)C1CCCN(O)C1=O (stereo not drawn) | UO-31 |  |  |  |  | log LC50 | > -4 log M |
| O=C(C[Se]C(=O)c1cccnc1Nc1cccc(C(F)(F)F)c1)Nc1cccc(C(F)(F)F)c1 | NCI60 CNS subpanel | NCI60 five-dose screen |  |  |  | CC50 | 9.12 µM |
| CC(C)[C@H](NC(=O)[C@H](CCCNC(=N)N)NC(=O)[C@@H]1CCCN1C(=O)[C@@H](NC(=O)[C@H](C)NC(=O)[C@H](Cc1ccc(O)cc1)NC(=O)[C@H](CCC(N)=O)NC(=O)[C@H](CCCCN)NC(=O)[C@H](CCCNC(=N)N)NC(=O)[C@@H]1CCCN1C(=O)[C@H](CCC(=O)O)NC(=O)[C@@H](NC(=O)[C@H](C)N)[C@@H](C)O)[C@@H](C)O)C(=O)N[C@@H](Cc1ccccc1)C(=O)N[C@@H](Cc1c[nH]c2ccccc12)C(=O)N[C@H](C(=O)N[C@@H](CC(=O)O)C(=O)N[C@@H](C)C(=O)N1CCC[C@H]1C(=O)NCC(=O)NCCOCCOCCOCCOCCOCCOCCOCCOCCOCCOCCOCCOCCC(=O)N[C@@H](CS)C(N)=O)[C@@H](C)O | HCC2279 lung adenocarcinoma | cell binding, phage binding, refers to: output/input phage |  | 10 min, 37 °C | reference: control phage | selectivity ratio | 2.8 ± 0.56 |
| CCc1noc(CC)c1C(=O)O[C@H]1C(C)=C[C@]23C(=O)[C@@H](C=C(CO)[C@@H](O)[C@]12O)[C@H]1[C@@H](C[C@H]3C)C1(C)C | B16-F10 | cytotoxicity, PrestoBlue | MEM with 10% FBS | 30 min |  | EC50 | 64 µM |
| Cc1cc(Oc2nc(N3CC[C@@H](c4ccncc4)C3)ncc2F)[nH]n1 | OVCAR-4 | cell proliferation |  |  |  | IC50 | 52.5 µM |
| CCCNC(=O)[C@H]1O[C@@H]1C(=O)N[C@H](C(=O)N1CCC[C@H]1C(=O)OCC1=C2C(C)=CC(C)=[N+]2[B-](C)(C)n2c(C)cc(C)c21)[C@@H](C)CC | MCF-10A | MTT |  | 4 h | reference: dark EC50 over light EC50 | phototoxicity index | > 9 |
| O=c1n(CCNCCOS(=O)(=O)c2ccccc2)c(=O)n(S(=O)(=O)c2ccccc2)c(=O)n1S(=O)(=O)c1ccccc1 | A549 | cell growth or viability, MTT |  | 50 µg/mL, 72 h |  | viability | 41.4% |
| COc1ccccc1-c1ccncc1C(=O)Nc1nnc(OCc2ccc(Cl)cc2)s1 | RPE-1 BRCA1 WT parental |  |  | 4 µM, run 1 | reference: untreated | colony survival | 72.2% |
| CC(C)[C@H]1NC(=O)C[C@H]2/C=C/CCSSC[C@@H](NC1=O)C(=O)N[C@H](Cc1cccc3ccccc13)C(=O)NCC(=O)O2 | EPHA5 (Homo sapiens, UniProt P54756) | enzyme activity, inhibitor |  | 10 µM |  | inhibition | -9.3% |
| O=C(Nc1cccs1)c1cccnc1 | HCT-116 Cas9-expressing | cell growth, genome-wide CRISPR knockout screen |  | 50 nM, 30 d, Nam-free DMEM, unit not given | reference: vehicle, fewer doublings versus vehicle | population doublings | 7.6 |
| COc1ccccc1-c1n[nH]c2nc(N[C@H]3CC[C@H](NS(=O)(=O)CC(C)C)CC3)ncc12 |  | bead binding, competition bead pull-down, refers to: LMJF.27.2400 | Leishmania donovani extract | 10 µM | reference: vehicle | relative abundance | 1.99 |

Repeated from above:
| SMILES | tested on | test | system | setting | scale | quantity | result |
| --- | --- | --- | --- | --- | --- | --- | --- |
| COc1ccc(NC(=O)c2ccc3[nH]c(-c4ccc(N(C)C)cc4)nc3c2)cn1 | HCT-116 | Caspase-Glo luminescence |  | 8 µM, ISRIB pre-incubation, unit not given | reference: DMSO | caspase-3/7 activity | 5.08 |
| COc1ccccc1-c1n[nH]c2nc(NC3CCN(C(=O)Cc4ccc(F)cc4F)CC3)ncc12 |  | bead binding, competition bead pull-down, refers to: LINJ.36.0600 | Leishmania donovani axenic amastigote extract | 10 µM | reference: vehicle | relative abundance | 0.42 |
| CC[C@H](C)[C@H](NC(=O)[C@H](CO)NC(=O)[C@H](Cc1ccc(O)cc1)NC(=O)[C@H](Cc1ccc(O)cc1)NC(=O)[C@H](CC(N)=O)NC(=O)CNC(=O)[C@H](CO)NC(=O)[C@H](Cc1ccc(O)cc1)NC(=O)[C@H](CO)NC(=O)[C@H](CO)NC(=O)[C@H](CC(N)=O)NC(=O)COCCOCCNC(=O)CN1CCN(CC(=O)O)CCN(CC(=O)O)CCN(CC(=O)O)CC1)C(=O)N[C@@H](CC(C)C)C(N)=O [copper-64 labelled] |  | dynamic PET | tamoxifen-induced PDAC mouse model, pancreas | 17.5 min, CLDN4-expressing tumours |  | maximum pancreas uptake | 16.2 %IA/cc |
| Cc1cc(Oc2nc(N3CC[C@@H](c4ccncc4)C3)ncc2F)[nH]n1 | OVCAR-4 | cell proliferation |  |  |  | IC50 | 52.5 µM |
| CCCNC(=O)[C@H]1O[C@@H]1C(=O)N[C@H](C(=O)N1CCC[C@H]1C(=O)OCC1=C2C(C)=CC(C)=[N+]2[B-](C)(C)n2c(C)cc(C)c21)[C@@H](C)CC | MCF-10A | MTT |  | 4 h | reference: dark EC50 over light EC50 | phototoxicity index | > 9 |
